Measurements from different studies.
Compare with care: the assays were run in different laboratories. Values joined by “and” are separate records of one study, mostly repeats; a detail may differ.

`CCn1ccc(-c2cc([C@@H](C)NC(=O)c3cc(OC[C@@H]4CCCN4C)ccc3C)c3ccccc3n2)n1` has a viability of 86.2% and 89% and 85.4% (Vero E6; 15.62 µM).
The viability of `NC(=O)N/N=C/c1ccc(OCc2cccc(F)c2)cc1` is reported as 38.1% (IMR-32; MTT; 500 µg/mL, 24 h; baseline: untreated control).
For `CNC(=O)C[C@H](Cc1ccncc1)NC(=O)[C@@H](Cc1cccc(Br)c1)NC(=O)[C@@H](N)Cc1cccc(F)c1`, the viability was 0.871 and 1.06 (Huh-7-ACE2; CellTiter-Glo; 6.25 µM, 48 h, unit not given; baseline: DMSO).
`Cc1ccc(N2CC3CCC(C2)N3C)cc1C(=O)N[C@H](C)c1cc(-c2cnn(C)c2)nc2ccccc12` gave a viability of 1.72% and 0.766% and 1.53% (Vero E6; 125 µM).
For `CNC(=O)C[C@H](Cc1ccc(F)cc1)NC(=O)[C@@H](Cc1ccc(Cl)cc1Cl)NC(=O)[C@H](N)Cc1ccccc1[N+](=O)[O-]`, the viability was 0.954 and 0.966 and 0.925 (Huh-7-ACE2; CellTiter-Glo; 1.562 µM, 48 h, unit not given; baseline: DMSO).
For `NC(=S)N/N=C/c1ccc(OCc2ccccc2)cc1`, the viability was 92.5% (IMR-32; MTT; 50 µg/mL, 24 h; baseline: untreated control).
For `Cc1ccc(N(C)C2(C)CN(C)C2)cc1C(=O)N[C@H](C)c1cc(-c2cnn(C)c2)nc2ccccc12`, the viability was 52.6% and 64.1% and 50.3% (Vero E6; 125 µM).
With `CCCCCCCCCCCCCCCC(=O)OCC(CSC[C@H](N)C(=O)N[C@@H](CO)C(=O)N[C@@H](CCCCN)C(=O)N[C@@H](CCCCN)C(=O)N[C@@H](CCCCN)C(=O)N[C@@H](CCCCN)C(=O)O)OC(=O)CCCCCCCCCCCCCCC` (stereo partly drawn) the viability was 85.8% (HFF-1; 0.01 µg/mL, 48 h).
`CNC(=O)C[C@H](Cc1ccccc1)NC(=O)[C@@H](Cc1ccc(Cl)cc1Cl)NC(=O)[C@H](N)Cc1ccccc1C#N` has a viability of 1 and 0.979 and 1.05 (Huh-7-ACE2; CellTiter-Glo; 0.00305 µM, 48 h, unit not given; baseline: DMSO).
With `Cc1ccc(N2CCN(C)C3(CC3)C2)cc1C(=O)N[C@H](C)c1cc(-c2cnn(C)c2)nc2ccccc12` the viability was 6.46% and 5.42% and 7.08% (Vero E6; 500 µM).
For `CNC(=O)CC[C@H](Cc1ccccc1)NC(=O)[C@@H](Cc1ccc(Cl)cc1Cl)NC(=O)[C@H](N)Cc1ccccc1[N+](=O)[O-]`, the viability was 1.07 and 1.06 and 0.982 (Huh-7-ACE2; CellTiter-Glo; 0.391 µM, 48 h, unit not given; baseline: DMSO).
With `NC(=S)N/N=C/c1ccc(OCc2cccc(F)c2)cc1` the viability was 57% (IMR-32; MTT; 200 µg/mL, 24 h; baseline: untreated control).
`CCOc1ccc(CN2CC[C@H]2C(=O)NC)cc1-c1cccc(C(=O)NC[C@@H]2COC(C)(C)O2)c1` has a viability of 1 and 1.12 and 1.06 (Huh-7-ACE2; CellTiter-Glo; 0.0977 µM, 48 h, unit not given; baseline: DMSO).
`CCCCCCCCCCCCCCCC(=O)N[C@@H](CSCC(COC(=O)CCCCCCCCCCCCCCC)OC(=O)CCCCCCCCCCCCCCC)C(=O)N[C@@H](CO)C(=O)N[C@@H](CCCCN)C(=O)N[C@@H](CCCCN)C(=O)N[C@@H](CCCCN)C(=O)N[C@@H](CCCCN)C(=O)O` (stereo partly drawn) gave a viability of 104% (HFF-1; 10 µg/mL, 48 h).
With `Cc1ccc(OCCN(C)C)cc1C(=O)N[C@H](C)c1cc(-c2ccnn2C)nc2ccccc12` the viability was 0% and -2.11% (Vero E6; 250 µM).
With `CCCCCCCCCCCCCCCC(=O)OCC(CSC[C@H](N)C(=O)NCC(=O)N[C@@H](CC(=O)O)C(=O)N1CCC[C@H]1C(=O)N[C@@H](CCCCN)C(=O)N[C@@H](Cc1c[nH]cn1)C(=O)N1CCC[C@H]1C(=O)N[C@@H](CCCCN)C(=O)N[C@@H](CO)C(=O)N[C@@H](Cc1ccccc1)C(=O)O)OC(=O)CCCCCCCCCCCCCCC` (stereo partly drawn) the viability was 100% (HFF-1; 10 µg/mL, 48 h).
With `Cc1ccc(OCCN(C)C)cc1C(=O)N[C@H](C)c1cc(-c2cccnc2N2CCCC2)nc2ccccc12` the viability was 102% and 103% (Vero E6; 15.62 µM).
With `O=c1n(CCNCCOS(=O)(=O)c2ccccc2)c(=O)n(S(=O)(=O)c2ccccc2)c(=O)n1S(=O)(=O)c1ccccc1` the viability was 62.7% (HUVEC; cell growth or viability, MTT; 50 µg/mL, 24 h).

For quick reference, copied from above:
With `Cc1ccc(N2CCN(C)C3(CC3)C2)cc1C(=O)N[C@H](C)c1cc(-c2cnn(C)c2)nc2ccccc12` the viability was 6.46% and 5.42% and 7.08% (Vero E6; 500 µM).
`CCOc1ccc(CN2CC[C@H]2C(=O)NC)cc1-c1cccc(C(=O)NC[C@@H]2COC(C)(C)O2)c1` has a viability of 1 and 1.12 and 1.06 (Huh-7-ACE2; CellTiter-Glo; 0.0977 µM, 48 h, unit not given; baseline: DMSO).
With `CCCCCCCCCCCCCCCC(=O)OCC(CSC[C@H](N)C(=O)N[C@@H](CO)C(=O)N[C@@H](CCCCN)C(=O)N[C@@H](CCCCN)C(=O)N[C@@H](CCCCN)C(=O)N[C@@H](CCCCN)C(=O)O)OC(=O)CCCCCCCCCCCCCCC` (stereo partly drawn) the viability was 85.8% (HFF-1; 0.01 µg/mL, 48 h).
